# Published values pooled from the literature.
# Each line is one published result; not all experiments were run side by side. ± marks the error that the study gave.
# Chain of UniProt Q15759 (whole entry, looked up): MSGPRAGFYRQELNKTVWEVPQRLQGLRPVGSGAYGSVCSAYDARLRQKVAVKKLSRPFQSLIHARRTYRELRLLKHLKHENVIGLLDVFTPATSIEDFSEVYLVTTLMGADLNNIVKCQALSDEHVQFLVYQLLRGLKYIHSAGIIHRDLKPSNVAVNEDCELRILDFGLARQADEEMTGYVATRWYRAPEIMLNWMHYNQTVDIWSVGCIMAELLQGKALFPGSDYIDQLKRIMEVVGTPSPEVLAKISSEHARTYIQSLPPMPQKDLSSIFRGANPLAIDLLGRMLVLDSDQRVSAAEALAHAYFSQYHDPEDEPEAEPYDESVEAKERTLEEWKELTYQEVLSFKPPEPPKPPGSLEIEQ
Compound,target or system,test,test system,setting,how to read,endpoint,value
C[C@]1(CO)Cc2ncn(-c3ccc(C#N)c(Cl)c3)c2C(=O)O1,,,"healthy Japanese adults, plasma","3 mg once daily, after first dose, multiple dose",,AUC(0-inf),1.04 µM·h
N.N.O=C([O-])C1(C(=O)[O-])CCC1.[Pt+2],,measured: unbound platinum,"human, plasma ultrafiltrate","intravenous, AUC 3, median, dose level -1",,Tmax,36 min
CC[C@H](C)[C@@H]1NC(=O)[C@@H]2CCCN2C(=O)[C@H](CC(C)C)NC(=O)[C@H](CC(C)C)NC(=O)CNC(=O)[C@@H](NC(=O)[C@@H](NC(=O)[C@H](CC(=O)O)NC(=O)CNC(=O)[C@@H](NC(=O)[C@H](C)NC(=O)CNC(=O)[C@H](CCCCN)NC(=O)[C@H](CC(C)C)NC(=O)[C@H](CC(C)C)NC(=O)[C@H](CCCCN)NC(=O)CNC(=O)[C@@H](NC(=O)[C@@H](N)CC(C)C)C(C)C)C(C)C)C(C)C)CSSC[C@@H](C(=O)O)NC1=O,,"RNA-seq, measured: Samhd1","mouse, traumatic brain injury model, frontal cortex and hippocampus",dose not given,baseline: TBI alone,log2 fold change,-1.12
COc1ccnc(C(=O)N[C@H]2COC(=O)[C@H](Cc3ccccc3)[C@@H](OC(=O)C(C)C)[C@H](C)OC2=O)c1OCOC(=O)C(C)C,,,bovine fat,-18 °C,,storage stability,9 months
CC(C)C[C@@H]1NC(=O)CNC(=O)[C@H](CC(N)=O)NC(=O)[C@H](CCCNC(=N)N)NC(=O)[C@H]([C@@H](C)O)NC(=O)[C@@H]2CSSC[C@@H]3NC(=O)[C@H]([C@@H](C)O)NC(=O)CNC(=O)CNC(=O)[C@H](C(C)C)NC(=O)[C@@H]4CSSC[C@H](NC(=O)[C@H]([C@@H](C)O)NC(=O)[C@H](CSSC[C@H](NC(=O)[C@H](C(C)C)NC(=O)[C@@H]5CCCN5C1=O)C(=O)NCC(=O)N[C@@H](CCC(=O)O)C(=O)N[C@@H]([C@@H](C)O)C(=O)N4)NC(=O)CNC(=O)[C@@H]1CCCN1C(=O)[C@H]([C@@H](C)O)NC(=O)[C@H](CC(N)=O)NC3=O)C(=O)N[C@@H](CO)C(=O)N[C@@H](Cc1c[nH]c3ccccc13)C(=O)N1CCC[C@H]1C(=O)N[C@@H](CCCCN)C(=O)N2,,HPLC,ammonium bicarbonate 0.1 M,"180 µM, 7 days, pH 9.0, 37 °C, deamidation stability",,remaining peptide,62 ± 2.6%
Clc1ccc(Cl)c(-c2cc(Cl)ccc2Cl)c1,,,fresh water,"20 °C, S30-2 sampler, 30 µm",,log K(PDMS-water),5.56 ± 0.01
C[C@H]1CN(c2n[nH]c3nc(N[C@H]4CC[C@H](NS(=O)(=O)CCC(F)(F)F)CC4)ncc23)CCO1,"MAPK11 (Homo sapiens, UniProt Q15759)",Kinobeads competition,"HEK293, K562, placenta lysate","0.032 µM, unit not given",baseline: vehicle,remaining binding,0.82
CC[C@H](C)[C@H](NC(=O)[C@H](Cc1ccccc1)NC(=O)[C@H](CCC(=O)O)NC(=O)[C@H](CCCNC(=N)N)NC(=O)[C@H](C)NC(=O)[C@H](C)NC(=O)[C@H](CCC(N)=O)NC(=O)[C@H](CCC(=O)O)NC(=O)[C@H](CCC(=O)O)NC(=O)[C@H](CC(C)C)NC(=O)[C@H](Cc1ccc(O)cc1)NC(=O)[C@H](CO)NC(=O)[C@H](CO)NC(=O)[C@@H](NC(=O)[C@H](CC(=O)O)NC(=O)[C@H](CO)NC(=O)[C@@H](NC(=O)[C@H](Cc1ccccc1)NC(=O)[C@@H](NC(=O)CNC(=O)[C@H](CCC(=O)O)NC(=O)[C@H](C)NC(=O)CCc1cnc[nH]1)[C@@H](C)O)[C@@H](C)O)C(C)C)C(=O)N[C@@H](C)C(=O)N[C@@H](Cc1c[nH]c2ccccc12)C(=O)N[C@@H](CC(C)C)C(=O)N[C@H](C(=O)N[C@@H](CCCNC(=N)N)C(=O)NCC(=O)N[C@@H](CCCNC(=N)N)C(=O)N[C@@H](CCCCNC(=O)COCCOCCNC(=O)COCCOCCNC(=O)CC[C@H](NC(=O)CCCCCCCCCCCCCCCCC(=O)O)C(=O)O)C(=O)NCC(=O)NCC(=O)N[C@@H](CO)C(=O)N[C@@H](CCSC)C(=O)N[C@H](C(=O)N[C@@H](CCCCNc1c(NCCCCCN(O)C(=O)CCC(=O)NCCCCCN(O)C(=O)CCC(=O)NCCCCCN(O)C(C)=O)c(=O)c1=O)C(=O)O)C(C)C)C(C)C [zirconium-89 labelled],,ex vivo gamma counting,"male Sprague-Dawley rats, bone marrow","intravenous, 1 nmol, 24 h, mean of 3 animals",,tissue uptake,0.64 %ID/g
NC(=O)[C@H]1CCN(c2ncnc(N)c2F)C[C@@H]1N1CCC[C@@H](Nc2cc(Cl)cc(C(F)(F)F)c2)C1=O,,,B-cell malignancy patients,"oral, 20.5 mg twice daily, dose",,any grade ≥3 adverse event,100%
O=C1Nc2cc3[nH]nc(-c4ccncc4)c3cc2CN1Cc1ccccc1,,CTCAE v4.03,advanced solid tumour patients,"intravenous, 9.6 mg/kg, schedules 1/2",,patients with abdominal pain,0%
CO[C@H]1C[C@@H]2CC[C@@H](C)[C@@](O)(O2)C(=O)C(=O)N2CCCC[C@H]2C(=O)O[C@H]([C@H](C)C[C@@H]2CC[C@@H](OC(=O)NCCOCCOCCOCCOCCOCCOCCOCCOCCC(=O)N3CCc4cc(Cn5nc(-c6ccc7oc(N)nc7c6)c6c(N)ncnc65)ccc4C3)[C@H](OC)C2)C[C@@H](O)[C@H](C)/C=C(\C)[C@@H](O)[C@@H](OC)C(=O)[C@H](C)C[C@H](C)/C=C/C=C/C=C/1C,,dose-escalation trial,patients with advanced solid tumours,"intravenous, 1.6 mg/3 mg weekly, any grade",,AEs leading to dose reduction,0%
COc1cc(Nc2ncc(F)c(Nc3ccc4c(n3)NC(=O)C(C)(C)O4)n2)cc(OC)c1OC,kainate receptor,binding,,,,IC50,> 10 µM
CCN1CCN(Cc2ccc(Nc3ncc(F)c(-c4cc(F)c5nc6n(c5c4)[C@H](C)CCC6)n3)nc2)CC1,,,patients with advanced solid tumours,"dose not given, phase Ia monotherapy",,decreased appetite grade ≥3,4.2%
COc1cc2c(Oc3ccc4[nH]c(C)cc4c3F)ccnc2cc1OCC1(N)CC1,,,paediatric recurrent refractory sarcoma,10 mg,,grade 1 or 2 Hypothyroidism,100%
Cc1cc(C(=O)NC(C)(C)COc2cccc3c2C(N)=NS(=O)(=O)N3)cc(C)n1,Salmonella typhimurium,"Ames test, initial",TA1535,"500 µg/plate, with: rat liver S9",baseline: solvent control,revertant ratio,1.3
CC(=O)N1CCC(C(=O)N2CCN3C(=O)c4cc(-c5ccccc5)ccc4NC(=O)C3C2)CC1 (stereo not shown),Salmonella typhimurium,,TA98,500 µg/plate,,revertants per plate,36.5
CN1CC[C@@H](c2c(O)cc(O)c3c(=O)cc(-c4ccc(C(F)(F)F)cc4Cl)oc23)[C@@H]1CO,,measured: grade 3 respiratory failure,relapsed or refractory haematologic malignancy patients,"oral, dose not given, phase dose escalation, all doses",,patients with adverse event,5%
COc1cccc(-c2n[nH]c(SCc3ccccn3)n2)c1OC,Salmonella typhimurium,"Ames test, preincubation",TA98,"1.0 mg/plate, without S9",,revertant colonies per plate,16
COc1cc2c(cc1OC)CN(CCc1ccc(NC(=O)c3cccc4c(=O)c5cccc(OC)c5[nH]c34)cc1)CC2,,,"CD-1 mouse, male, plasma","intraperitoneal, 0.3 mg/kg",,elimination rate constant,2.65e-05 s⁻¹
CC[C@H](C)[C@H](NC(=O)[C@H](Cc1ccccc1)NC(=O)[C@H](CCC(=O)O)NC(=O)[C@H](CCCNC(=N)N)NC(=O)[C@H](C)NC(=O)[C@H](C)NC(=O)[C@H](CCC(N)=O)NC(=O)[C@H](CCC(=O)O)NC(=O)[C@H](CCC(=O)O)NC(=O)[C@H](CC(C)C)NC(=O)[C@H](Cc1ccc(O)cc1)NC(=O)[C@H](CO)NC(=O)[C@H](CO)NC(=O)[C@@H](NC(=O)[C@H](CC(=O)O)NC(=O)[C@H](CO)NC(=O)[C@@H](NC(=O)[C@H](Cc1ccccc1)NC(=O)[C@@H](NC(=O)CNC(=O)[C@H](CCC(=O)O)NC(=O)[C@H](C)NC(=O)CCc1c[nH]cn1)[C@@H](C)O)[C@@H](C)O)C(C)C)C(=O)N[C@@H](C)C(=O)N[C@@H](Cc1c[nH]c2ccccc12)C(=O)N[C@@H](CC(C)C)C(=O)N[C@H](C(=O)N[C@@H](CCCNC(=N)N)C(=O)NCC(=O)N[C@@H](CCCNC(=N)N)C(=O)N[C@@H](CCCCNC(=O)COCCOCCNC(=O)COCCOCCNC(=O)CC[C@H](NC(=O)CCCCCCCCCCCCCCCCC(=O)O)C(=O)O)C(=O)NCC(=O)NCC(=O)N[C@@H](CO)C(=O)N[C@@H](CCCCNc1c(NCCCCCN(O)C(=O)CCC(=O)NCCCCCN(O)C(=O)CCC(=O)NCCCCCN(O)C(C)=O)c(=O)c1=O)C(=O)O)C(C)C [zirconium-89 labelled],,,"rat, intestine","sc, 3 nmol/kg, 168 h, ex vivo",,tissue uptake,0.09 %ID/g
C[C@@H](NC(=O)N1C(=O)[C@H](Cc2ccnc(N)c2)[C@H]1C(=O)O)C1CCCCC1,,,healthy Chinese adult volunteers,"continuous intravenous infusion, dose not given, 5.0 days, CTCAE 5.0, all doses",,administration site extravasation,2.5%
O=C(Nc1ccccc1)C1CCN(C(=O)Oc2cccnc2)CC1,,Bond-Lader VAS,healthy women,"oral, 60 mg","baseline: pre-dose baseline, direction not given",change in withdrawn–gregarious score,6.4
